Experimental data pooled from the literature.
Each numbered part is a random draw from the data of one study; scales do not carry over between parts.

Series 1 — method: protein binding microarray; molecule type: double-stranded DNA, one strand shown; medium: in vitro; concentration: not given; baseline: not given; direction: higher = stronger binding; measurement: E-score
Target: Histone acetyltransferase KAT6A, winged helix 2, GST fusion (KAT6A, Homo sapiens, UniProt Q92794, residues 85-181)
Setting: 8-mer, flanks averaged, mean of 2 arrays, mostly near background
Target sequence (chain): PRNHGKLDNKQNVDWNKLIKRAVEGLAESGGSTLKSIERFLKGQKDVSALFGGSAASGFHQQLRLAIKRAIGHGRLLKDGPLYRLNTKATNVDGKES
AGACAACG: -0.0796
TAAAACGA: 0.0485
ACCTATCG: -0.00236
GAAATACA: -0.0643
ATAAATGG: -0.025
AAGGTGTC: -0.0248
ACCCTGGA: -0.1
GGTGTACA: -0.228
AAATTAGT: 0.089

Series 2 — method: RNA Bind-n-Seq; molecule type: RNA; medium: in vitro; concentration: 365 nM; baseline: no-protein control; direction: higher = stronger binding; measurement: RBNS enrichment (R)
Target: RNA binding protein fox-1 homolog 2, RRM domain, GST-SBP tag (RBFOX2, Homo sapiens, UniProt O43251-10, residues 100-194)
Setting: natural RNA segment, single round, ends assumed
Construct (chain): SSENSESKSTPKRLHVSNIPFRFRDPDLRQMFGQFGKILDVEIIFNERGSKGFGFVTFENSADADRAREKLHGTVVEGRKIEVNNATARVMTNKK
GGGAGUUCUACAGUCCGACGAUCUGUCAUCAGUAUUAACUCUGGGAUACUCCGGGCUCUGUGUCUUUCCCUGUGAGGCGACAGUACAUGUGAGAAGAGGUACAUUUGUUGGAUUUUUGUUAAUGUAUUUAUUUUGGAAUUCUCGGGUGCCAA: 1.08
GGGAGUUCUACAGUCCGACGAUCACAGCUCUGGUAGCAAAACCAGUCCCCUACCCCCUAGAGAAUGCAUCCGUUUCCCCACCUGAUAUGGUUUGGCUGUGUCCCCACCUAAAACUCAUCUUGAAUUGUAGCUCUGGAAUUCUCGGGUGCCAA: 1.46
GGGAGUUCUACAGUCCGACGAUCGAGGGGCUCGGUGACCAAGGUAAACCACACGCGCAAACCGAGGCAGUCAUCUACAAAUAACCCAUCAUCUAUUUAAUGUUUUUAACCACCUACUUUUGUAUGGAGUUAAAUGGAAUUCUCGGGUGCCAA: 0.231
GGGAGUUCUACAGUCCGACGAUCUUUUUUUAGAUCUUAUAUUGUGUUUUGUAUGCAGCCCUUUUAGAACUACUUGUAGUGAGGGUGCUGUGUGUGCUUUUCUUAAAUAUUUAUUUUUUUCAACAUGCUUUCAAUGGAAUUCUCGGGUGCCAA: 1.48
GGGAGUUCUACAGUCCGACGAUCGAGAAAACAAACAAUCUUUGAAGAAUUUCUGAAACUGUUUACAAGGAAUUUUGAAAAACAGGGAUGUUUAAAUGAUGCUGGCUCUGUUUUUCUGUAAAUAAAUUUGCAUAUGGAAUUCUCGGGUGCCAA: 0.971
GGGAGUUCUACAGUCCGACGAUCGACAGCUGGUCACACAAGGAACUCUUGAAGGCCACAUGUGAAAACCUGUCACUUGCACAGAGGCCAGUCCCACUAAGGUGACCAGAGUGGGCUCCAAGCACAAACUGCCAUGGAAUUCUCGGGUGCCAA: 0.255
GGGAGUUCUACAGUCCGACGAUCAAUCCGAUUUGGUUUGGUUUUUCCCUUUCCCUGGAUUCUUUCCUACCUUCUUCAGGCUGUCAAGCACGGGAGAGGAGACACAGUGGGAGGGAUUCAUAAGGAGAAAACAGUGGAAUUCUCGGGUGCCAA: 0.236

Series 3 — method: protein-binding microarray; molecule type: double-stranded DNA, one strand shown; medium: in vitro; concentration: 2200 nM top; setting: 60-bp whole probe; with: salmon DNA 0.4 mg/ml; baseline: random background probes; direction: higher = stronger binding; measurement: fitted relative affinity; all sequences stand within: GCCTAGCAC … GTCTTGATTCGCTTGACGCTGCTG
Target: Interferon regulatory factor 7, full length, phosphomimetic (IRF7, Homo sapiens, UniProt Q92985, residues 1-503, S471D/S472D/S475D/S476D/S477D/S483D/S484D/S487D)
Construct (chain): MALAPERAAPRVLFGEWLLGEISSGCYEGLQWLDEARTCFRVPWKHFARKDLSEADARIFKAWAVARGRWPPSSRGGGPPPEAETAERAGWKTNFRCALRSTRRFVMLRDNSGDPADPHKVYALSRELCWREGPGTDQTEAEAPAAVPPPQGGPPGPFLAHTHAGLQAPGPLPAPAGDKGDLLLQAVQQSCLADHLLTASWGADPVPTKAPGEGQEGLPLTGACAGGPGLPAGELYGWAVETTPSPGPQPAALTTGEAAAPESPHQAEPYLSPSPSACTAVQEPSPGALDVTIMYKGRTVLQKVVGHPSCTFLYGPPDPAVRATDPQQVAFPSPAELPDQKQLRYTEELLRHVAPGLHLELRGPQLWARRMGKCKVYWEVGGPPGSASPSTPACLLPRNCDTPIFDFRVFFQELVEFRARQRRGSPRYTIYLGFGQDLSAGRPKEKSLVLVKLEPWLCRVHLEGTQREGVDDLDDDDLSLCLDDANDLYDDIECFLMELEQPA
TTAGGTCTCGGACTGCGTTAGTGCTAG: 0.465 z-score
GACGAACTCAGACTGGAGACGTGCTAG: -0.147 z-score
TCATCTCTAGAAATTCCCACTGTGCTA: 0.716 z-score
TCAACTTTCTTTTGCTTACTGTGCTAG: 2.74 z-score
AGCTATCACTATTCTAGGGAAGTGCTA: -0.652 z-score
GACGGTTTCGGGACTAGGGACGTGCTA: 3.49 z-score
GACGGTTTCGGGTTTCGGTACGTGCTA: 9.9 z-score
GACGGTATCGTACTGCTGACGTGCTAG: 0.368 z-score
TCAACCATCCTGTGTCTTACTGTGCTA: 1.08 z-score
GACGGACTGGGGTATCGAGACGTGCTA: -0.709 z-score

Single results of other studies
PhoQ, residues 284 288 289 292 302 303 AGGCYF
fold induction (PhoP, residues 12 14 15 18 19 NMSSL (Escherichia coli, UniProt P23836); Sort-seq, measured: YFP reporter; E. coli; PhoQ-PhoP variant library, with: 10 µM Mg2+; baseline: high Mg2+ state, higher = stronger signaling): 3.37

Excerpt of the above (series 1):
AAGGTGTC: -0.0248
ACCCTGGA: -0.1
GGTGTACA: -0.228
